Experimental data of several laboratories.
Lines come from different studies, so protocols differ. ± marks the error that the study gave.

Compound | target | assay | test system | setting | scale | measurement | value
CC[C@H](C)[C@@H]1NC(=O)[C@H](CC(=O)O)NC(=O)[C@H]([C@@H](C)O)NC(=O)[C@@H]2CSSC[C@@H]3NC(=O)[C@H](CC(C)C)NC(=O)[C@H](CC(N)=O)NC(=O)[C@H](CC(C)C)NC(=O)[C@H](CCCNC(=N)N)NC(=O)[C@H](C)NC(=O)[C@H](CCCCN)NC(=O)[C@H](CCSC)NC(=O)[C@H](CO)NC(=O)[C@H]([C@@H](C)O)NC(=O)[C@H](CCCNC(=N)N)NC(=O)[C@H](CSSC[C@H](NC(=O)[C@H]([C@@H](C)O)NC(=O)[C@H](CCCCN)NC(=O)[C@H](CCCNC(=N)N)NC3=O)C(=O)NCC(=O)N[C@@H](CO)C(=O)N[C@H](C(=O)O)CSSC[C@H](NC(=O)[C@@H](NC(=O)[C@@H](N)CCCNC(=N)N)[C@@H](C)O)C(=O)N[C@@H](CCCCN)C(=O)N[C@@H](CC(=O)O)C(=O)N[C@@H](CC(C)C)C(=O)N[C@@H]([C@@H](C)CC)C(=O)N3CCC[C@H]3C(=O)N[C@@H](C(C)C)C(=O)N[C@@H](CO)C(=O)N[C@@H](CCC(=O)O)C(=O)N2)NC(=O)[C@H](CCCNC(=N)N)NC1=O | KcsA-Shaker channel | two-electrode voltage clamp | Xenopus oocytes | 0 mV | – | koff | 0.15 ± 0.01 s⁻¹
Nc1ccn(C2CCC(OC(C(=O)O)P(=O)(O)O)C2)c(=O)n1 (racemic) | HIV-1 reverse transcriptase K70E | enzyme activity, inhibitor | – | with: poly(rI)·oligo(dC), [3H]dCTP | relative to: mutant over wild type | fold resistance | 0.2 fold
CC(=O)N[C@@H](CCCNC(=O)c1ccc(-c2cc(C(F)(F)F)ccn2)cc1)C(=O)NCC(=O)N[C@@H](CCCNC(=O)c1ccc(-c2cc(C(F)(F)F)ccn2)cc1)C(N)=O | vaccinia virus VH1 phosphatase | enzyme activity, inhibitor | – | – | – | IC50 | 4 µM
Cc1cn(C2CCC(OC(C(=O)O)P(=O)(O)O)C2)c(=O)[nH]c1=O (racemic) | HIV-1 reverse transcriptase K65R | enzyme activity, inhibitor | – | with: poly(rA)·oligo(dT), [3H]dTTP | relative to: mutant over wild type | fold resistance | 1.5 fold
CC[C@H](C)[C@H](NC(=O)[C@H](CC(C)C)NC(=O)[C@H](CCCCN)NC(=O)[C@@H](N)CCCCN)C(=O)N[C@H](C(=O)N[C@@H](Cc1ccccc1)C(=O)N[C@H](C(=O)N1CCC[C@H]1C(=O)N[C@@H](CCCCN)C(=O)N[C@@H](CCCCN)C(=O)N[C@H](C(=O)N[C@@H](CCCNC(=N)N)C(=O)N[C@@H](CCC(=O)O)C(=O)N[C@@H](CCCCN)C(=O)N[C@@H](CCCCN)C(=O)N[C@@H](CCCCN)C(=O)N[C@@H](CCC(=O)O)C(=O)N[C@@H](CS)C(=O)N[C@@H](CC(C)C)C(=O)N[C@H](C(=O)O)C(C)C)[C@@H](C)O)[C@@H](C)CC)[C@@H](C)O | TTX-sensitive sodium channel (mouse) | resurgent sodium current, open-channel blocker, kinetic model fit | mouse hippocampal CA3 neurons | 200 µM assumed intracellular, membrane potential -10 mV, unit not given | relative to: kIO over kOI | inactivation equilibrium constant | 0.19
CC[C@H](C)[C@@H]1NC(=O)[C@H](CC(=O)O)NC(=O)[C@H]([C@@H](C)O)NC(=O)[C@@H]2CSSC[C@@H]3NC(=O)[C@H](CC(C)C)NC(=O)[C@H](CC(N)=O)NC(=O)[C@H](CC(C)C)NC(=O)[C@H](CCCNC(=N)N)NC(=O)[C@H](Cc4ccc(O)cc4)NC(=O)[C@H](CCCCN)NC(=O)[C@H](CCSC)NC(=O)[C@H](CO)NC(=O)[C@H]([C@@H](C)O)NC(=O)[C@H](CCCNC(=N)N)NC(=O)[C@H](CSSC[C@H](NC(=O)[C@H]([C@@H](C)O)NC(=O)[C@H](CCCCN)NC(=O)[C@H](CCCNC(=N)N)NC3=O)C(=O)NCC(=O)N[C@@H](CO)C(=O)N[C@H](C(=O)O)CSSC[C@H](NC(=O)[C@@H](NC(=O)[C@@H](N)CCCNC(=N)N)[C@@H](C)O)C(=O)N[C@@H](CCCCN)C(=O)N[C@@H](CC(=O)O)C(=O)N[C@@H](CC(C)C)C(=O)N[C@@H]([C@@H](C)CC)C(=O)N3CCC[C@H]3C(=O)N[C@@H](C(C)C)C(=O)N[C@@H](CO)C(=O)N[C@@H](CCC(=O)O)C(=O)N2)NC(=O)[C@H](CCCNC(=N)N)NC1=O | KcsA-Shaker chimera channel | two-electrode voltage clamp | Xenopus oocytes | 5 nM, 0 mV | – | dissociation time constant | 714 ± 82 s
CC[C@H](C)[C@H](NC(=O)[C@H](CC(C)C)NC(=O)[C@@H](NC(=O)[C@@H](NC(=O)[C@H](CC(C)C)NC(=O)[C@H](CCCCN)NC(=O)[C@@H](N)CCCCN)[C@@H](C)CC)[C@@H](C)O)C(=O)N[C@@H](Cc1ccccc1)C(=O)N[C@@H](CCCCN)C(=O)N[C@@H](CCCCN)C(=O)N[C@H](C(=O)N[C@@H](CCCNC(=N)N)C(=O)N[C@@H](CCC(=O)O)C(=O)N[C@@H](CCCCN)C(=O)N[C@@H](CCCCN)C(=O)N[C@@H](CCCCN)C(=O)N[C@@H](CCC(=O)O)C(=O)N[C@@H](CS)C(=O)N[C@@H](CC(C)C)C(=O)N[C@H](C(=O)O)C(C)C)[C@@H](C)O | TTX-sensitive sodium channel (mouse) | resurgent sodium current, open-channel blocker, kinetic model fit | mouse hippocampal CA3 neurons | 200 µM assumed intracellular, membrane potential -30 mV, unit not given | relative to: kIO over kOI | inactivation equilibrium constant | 0.068
CCCCCCCCCCCCCCCCCC(=O)N[C@@H](CCC(=O)NCCCC[C@H](NC(=O)[C@H](CCC(N)=O)NC(=O)[C@H](CCCCN)NC(=O)[C@H](CO)NC(=O)[C@H](CC(C)C)NC(=O)[C@H](CC(=O)O)NC(=O)[C@H](CO)NC(=O)[C@@H](NC(=O)[C@H](Cc1ccccc1)NC(=O)[C@@H](NC(=O)CNC(=O)[C@H](CCC(N)=O)NC(=O)[C@@H](CO)NC(=O)[C@@H](N)Cc1c[nH]cn1)[C@@H](C)O)[C@@H](C)O)C(=O)N[C@@H](CC(=O)O)C(=O)N[C@@H](CCC(=O)O)C(=O)N[C@@H](CCC(N)=O)C(=O)N[C@@H](CC(C)C)C(=O)N[C@@H](C)C(=O)N[C@@H](CCCCN)C(=O)N[C@@H](CC(=O)O)C(=O)N[C@@H](Cc1ccccc1)C(=O)N[C@H](C(=O)N[C@@H](CCC(=O)O)C(=O)N[C@@H](Cc1c[nH]c2ccccc12)C(=O)N[C@@H](CC(C)C)C(=O)N[C@@H](CCCCN)C(=O)N[C@@H](C)C(=O)NCC(=O)NCC(=O)N1CCC[C@H]1C(=O)N[C@@H](CO)C(=O)N[C@@H](CO)C(=O)NCC(=O)N[C@@H](C)C(=O)N1CCC[C@H]1C(=O)N1CCC[C@H]1C(=O)N1CCC[C@H]1C(=O)N[C@@H](CO)C(N)=O)[C@@H](C)CC)C(=O)O | glucagon receptor (monkey) | cAMP production, agonist, HTRF | HEK293 expressing monkey GCGR | – | – | EC50 | 0.000119 µM

Excerpt of the above:
Compound | target | assay | test system | setting | scale | measurement | value
CC[C@H](C)[C@H](NC(=O)[C@H](CC(C)C)NC(=O)[C@H](CCCCN)NC(=O)[C@@H](N)CCCCN)C(=O)N[C@H](C(=O)N[C@@H](Cc1ccccc1)C(=O)N[C@H](C(=O)N1CCC[C@H]1C(=O)N[C@@H](CCCCN)C(=O)N[C@@H](CCCCN)C(=O)N[C@H](C(=O)N[C@@H](CCCNC(=N)N)C(=O)N[C@@H](CCC(=O)O)C(=O)N[C@@H](CCCCN)C(=O)N[C@@H](CCCCN)C(=O)N[C@@H](CCCCN)C(=O)N[C@@H](CCC(=O)O)C(=O)N[C@@H](CS)C(=O)N[C@@H](CC(C)C)C(=O)N[C@H](C(=O)O)C(C)C)[C@@H](C)O)[C@@H](C)CC)[C@@H](C)O | TTX-sensitive sodium channel (mouse) | resurgent sodium current, open-channel blocker, kinetic model fit | mouse hippocampal CA3 neurons | 200 µM assumed intracellular, membrane potential -10 mV, unit not given | relative to: kIO over kOI | inactivation equilibrium constant | 0.19
